Results pooled from the literature.
A part holds a random share of what one study measured. Changes are numbered by the printed parent chain.
Sequence of UniProt Q13131 (whole entry, looked up): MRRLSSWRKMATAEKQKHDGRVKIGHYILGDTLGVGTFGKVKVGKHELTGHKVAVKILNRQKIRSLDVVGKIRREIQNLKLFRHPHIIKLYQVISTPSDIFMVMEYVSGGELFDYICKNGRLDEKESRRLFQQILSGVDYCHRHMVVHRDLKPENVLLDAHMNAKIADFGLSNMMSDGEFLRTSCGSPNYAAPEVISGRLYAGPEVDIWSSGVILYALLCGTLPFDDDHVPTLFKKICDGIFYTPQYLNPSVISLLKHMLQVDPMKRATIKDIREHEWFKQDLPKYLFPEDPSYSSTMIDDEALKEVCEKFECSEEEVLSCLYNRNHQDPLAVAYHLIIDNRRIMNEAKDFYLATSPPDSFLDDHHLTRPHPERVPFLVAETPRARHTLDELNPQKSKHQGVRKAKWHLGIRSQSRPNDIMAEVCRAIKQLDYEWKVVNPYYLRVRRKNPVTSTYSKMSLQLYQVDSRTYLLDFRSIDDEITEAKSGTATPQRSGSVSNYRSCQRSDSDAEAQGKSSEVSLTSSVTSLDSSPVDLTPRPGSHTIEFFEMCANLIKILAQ

Set 1
Target: TAR DNA-binding protein 43, full length, His tag (TARDBP, Homo sapiens, UniProt Q13148, residues 1-414)
Method: RNA Bind-n-Seq
Form: RNA
Medium: in vitro
Tested at: 20 nM
Notes: 6-mer, flanks averaged, single round
Added: 150 mM KCl
Reference: input library
Direction: higher = stronger binding
Strand	6-mer enrichment (R)
AUUGUA	0.652
AGCCAC	0.702
GCAGUC	0.829
GACGGA	1.55
UAGUGU	0.939
AGUGUG	1.9
CUGCGU	0.825
AUGGAA	0.889

Set 2
Target: CRIPT, C-terminal peptide
Method: DHFR complementation, deep sequencing
Medium: yeast
Notes: single substitutions, model-inferred values
Reference: wild type
Direction: higher = weaker binding
Parent: ERBIN, PDZ domain 1 (human); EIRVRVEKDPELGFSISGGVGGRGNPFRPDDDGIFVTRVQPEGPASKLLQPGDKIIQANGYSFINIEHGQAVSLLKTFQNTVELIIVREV; partner TKNYKQTSV
Substitution	binding free energy change [kcal/mol]
S62N	0.148
N25F	0.98
G18V	0.716
P10T	-0.687
S15E	1.26
F27G	0.909
F14L	-0.502
Q40A	0.275

Single results of other studies
TYK2: Non-receptor tyrosine-protein kinase TYK2 (TYK2, Homo sapiens, UniProt P29597)
Sequence of UniProt P29597 (whole entry, looked up): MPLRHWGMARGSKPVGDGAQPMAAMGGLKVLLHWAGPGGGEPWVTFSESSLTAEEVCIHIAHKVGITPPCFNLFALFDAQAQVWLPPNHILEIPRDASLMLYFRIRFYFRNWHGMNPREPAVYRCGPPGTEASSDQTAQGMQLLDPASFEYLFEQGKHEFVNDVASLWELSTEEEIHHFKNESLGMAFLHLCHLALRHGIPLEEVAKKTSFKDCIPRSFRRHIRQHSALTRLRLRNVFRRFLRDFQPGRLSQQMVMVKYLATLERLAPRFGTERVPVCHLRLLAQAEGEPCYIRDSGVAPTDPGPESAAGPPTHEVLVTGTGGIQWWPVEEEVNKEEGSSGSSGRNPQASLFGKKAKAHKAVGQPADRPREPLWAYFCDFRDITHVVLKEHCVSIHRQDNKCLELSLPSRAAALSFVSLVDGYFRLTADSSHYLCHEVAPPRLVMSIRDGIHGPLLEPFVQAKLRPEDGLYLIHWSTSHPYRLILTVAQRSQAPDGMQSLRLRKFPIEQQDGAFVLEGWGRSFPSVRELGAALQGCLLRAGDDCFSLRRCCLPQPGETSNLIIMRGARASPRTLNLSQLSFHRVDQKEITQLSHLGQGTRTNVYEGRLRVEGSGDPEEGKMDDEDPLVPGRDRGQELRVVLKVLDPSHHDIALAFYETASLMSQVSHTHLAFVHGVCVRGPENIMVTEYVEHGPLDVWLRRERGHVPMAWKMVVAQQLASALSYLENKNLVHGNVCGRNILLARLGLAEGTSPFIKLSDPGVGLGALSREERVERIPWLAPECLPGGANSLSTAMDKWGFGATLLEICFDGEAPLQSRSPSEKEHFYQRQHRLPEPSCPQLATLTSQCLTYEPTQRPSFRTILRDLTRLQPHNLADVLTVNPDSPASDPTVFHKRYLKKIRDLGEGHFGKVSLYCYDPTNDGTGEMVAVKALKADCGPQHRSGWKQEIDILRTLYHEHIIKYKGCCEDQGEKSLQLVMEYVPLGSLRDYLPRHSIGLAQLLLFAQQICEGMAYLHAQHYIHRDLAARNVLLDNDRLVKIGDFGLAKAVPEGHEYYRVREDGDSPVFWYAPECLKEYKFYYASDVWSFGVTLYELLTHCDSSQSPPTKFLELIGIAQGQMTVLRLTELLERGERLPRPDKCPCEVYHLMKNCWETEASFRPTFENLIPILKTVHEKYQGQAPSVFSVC
Compound	target	assay	conditions	scale	quantity	result
CCCCc1c(-c2ccc(O)cc2)[nH]c2nccnc12	TYK2	enzyme activity, inhibitor	0.5 µM	reference: control	remaining activity	43.4%
Cc1nc(C2CCN(C(=O)c3ccc(OC(F)(F)F)cc3N)CC2)c2ncc(N3CCN(C)CC3)cc2n1	5'-AMP-activated protein kinase catalytic subunit alpha-1 (PRKAA1, Homo sapiens, UniProt Q13131)	cell-free assay, competition with immobilised ligand	1 µM	–	remaining binding	98%
O=C1c2ccccc2-c2nc3nnnn3nc21	TYK2	enzyme activity, inhibitor	0.5 µM	reference: control	remaining activity	77.2%

Excerpt of the above (single results of other studies):
Compound	target	assay	conditions	scale	quantity	result
CCCCc1c(-c2ccc(O)cc2)[nH]c2nccnc12	TYK2	enzyme activity, inhibitor	0.5 µM	reference: control	remaining activity	43.4%
